# Measured values from different studies.
# Parts stem from different laboratories: compare values within a part only.

# Block 1
# Target: RING finger protein unkempt homolog, zinc fingers 1-6, GST-SBP tag (UNK, Homo sapiens, UniProt Q9C0B0, residues 30-357)
# Technique: RNA Bind-n-Seq
# Form: RNA
# Medium: in vitro
# Tested at: not given
# Notes: RNA with constant flanks, human and mouse sites, ends assumed
# Baseline: input RNA pool
# Direction: higher = stronger binding
# Shared flanks, not repeated: GGGAGUUCUACAGUCCGACGAUC … CAACAGAGGAUUGAGCAUCA
# Target sequence (chain): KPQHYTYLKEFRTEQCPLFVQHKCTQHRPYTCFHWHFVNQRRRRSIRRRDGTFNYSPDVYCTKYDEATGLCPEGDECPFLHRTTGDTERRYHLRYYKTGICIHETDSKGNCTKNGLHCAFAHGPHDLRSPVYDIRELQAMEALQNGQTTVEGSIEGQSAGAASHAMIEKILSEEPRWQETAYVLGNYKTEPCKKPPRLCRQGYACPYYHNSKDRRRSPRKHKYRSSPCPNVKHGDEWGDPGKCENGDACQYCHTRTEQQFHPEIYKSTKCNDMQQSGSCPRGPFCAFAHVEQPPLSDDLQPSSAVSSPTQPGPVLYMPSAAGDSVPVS
Oligonucleotide,bound/input enrichment
UUUUUUUUAAAUUUUUUUAUUUUCUUUUUGUUUGUUUCGUUUUGGGGAGGGGUAAAAGUUCUUAGCACAAGUGUUUUACAUAAUUUGUACCAAAAAAAUUACACACAAAAAAAAAAAAAG,1.2 ratio
CUAGCCAAACACCCAUGCAAUGCUUCAAUGGAAUGCGACAAAUGUCAGAGGCGGCAGAAGAAUAGAGCAUUUUGCUAUUUUUGUAAUUCUGUUCAGAAGUUACCAAUUUGUGCACAGUGU,0.241 ratio
AGCAAAAAAGCAGAAAUCCCAAUUAACAAGACACACAAGCAACAGUUUAAUAAACUCAUUACCAGCCAGGCUGCGCAAGUUACAACUCAUUCUAAAAAUGCUUCACUCGGGGUUCCAAGA,0.354 ratio
AGAACCUUUUCCACACACCUCCUCCUUCCUGUUCUCUUUGAACCAUUCAUCACCUCUGCCUUCCUCCUAUCCCCAGCCCAAUAAAUUAAAACAAUUAACUGAGCAAAUUAAUUAGGCUUC,1.23 ratio
CUGAUUGGUUAUUUUUCCUUUCCUUCUGAGGUUCUCAUGUCAUUUUCUUCAUCGGAUGUGACUAAAAUUUUUCUGGUGUCUUCUGCCCUCUCUUUAAUUUUGCCUCUUGAGGGGUAGCAG,0.367 ratio
UUUUCUGUAUUAAGCAAAUUCUAAUUUUUAUAUGUGGUUUUUGACUGUGGGGGUUGUCUCUAUAGUUUGUCUUACUGUUGAAAUGACAUGGUUAUCCAAAGCCUCUAGUGUCCGUCAGGU,2.33 ratio
UUUGUCCUGGAAAUCUGGAAAGCUUGCUUUGUGGGACUCAUUGAGUCCCCCGAGGGCACGCAGGAGCUGAAGUGGACAGCUUUCACCUACCUCAAGAUUCCACAGGUCUUGGUGAAGUUG,0.143 ratio
UUUACAACGCACCAAGAACAUUCUAUUCGCAGAAAUUUCUUAAAAACAGGUACUAAAUUUAGCAACUUUAUUCACGAAGAACACCAGUCCAAUGGGGGUGCUCUUGUCCUUCAUGCAUAC,1.61 ratio
AAAAUACUACAAGCAGGCUUCAAGAGGAUGGGCGUUGACAAAAUAAUUCCUGUGGAUAAAUUAGUAAAAGGAAAAUUUCAGGACAAUUUUGAAUUUGUUCAAUGGUUCAAGAAGUUUUUU,0.751 ratio
AGCUCUGCCAGGAUGGUGACCGCAGUGCCCGCUGUGUUUUCCAAGCUGGUAACCAUGCUUAAUGCUUCUGGCUCCACCCACUUCACCAGGAUGCGCCGGCGUCUGAUGGCUAUCGCGGAU,0.0886 ratio
AUCAUGGCUACAAACAGACCAGAUACACUGGAUCCUGCUUUGCUGCGUCCAGGAAGAUUAGAUAGAAAAAUACAUAUUGAUUUGCCAAAUGAACAAGCAAGAUUAGACAUACUGAAAAUC,55.1 ratio

# Block 2
# Target: RNA binding protein fox-1 homolog 2, RRM domain, GST-SBP tag (RBFOX2, Homo sapiens, UniProt O43251-10, residues 100-194)
# Technique: RNA Bind-n-Seq
# Form: RNA
# Medium: in vitro
# Tested at: 365 nM
# Notes: natural RNA segment, single round, ends assumed
# Baseline: no-protein control
# Direction: higher = stronger binding
# Shared flanks, not repeated: GGGAGUUCUACAGUCCGACGAUC … UGGAAUUCUCGGGUGCCAA
# Target sequence (chain): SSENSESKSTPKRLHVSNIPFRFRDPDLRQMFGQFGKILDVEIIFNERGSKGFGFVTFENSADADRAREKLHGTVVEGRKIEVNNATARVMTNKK
Oligonucleotide,RBNS enrichment (R)
CUUUAUGAAAUAUCCUUACUUUAUCUGGGCUUAAUAAGUCACUGACAUCAGCACUGCCAACUCGGCUGCAAUUGUGGACCUUCCCUACCAAAGGGAGUGUUGAAACUCAA,0.295
CUCCAGCUCCUGGGAUCCAGGAGUCCAUCCCCAGUCCCCUGGGAUCCUAGUGUCCCUCCCUCCUGCAUCUCCUGGUCUCCUUCUCCAGGACCUUCCCAGCUUCCCCUCAG,0.833
UAUGAUGAAGGGUUUGGGGUGUUUUUAUUUGUAGCAGAGGUAAGAAUAUGUAUUCAUAUAAUCUGCCUACUUUUGAGUUCUCAUAUUAACAUUUAGAUAACAUAUGAAGU,0.456
UGAAUCUUGAAGGAAGAAGAUGAAUCAGAUGAUGACAAUAUGUAAUAUUUUCUUCCCCAUCCGCUGGUUUACAUUUCUGUAACAGUUGCAUAUGGCUAGCACCAUGGACU,0.653
GGCCAAUAUAGGAUUAAUAUCUGUGUUCCAGCUUCAGCCAGAACGAUAUGUCUGUCCAUCUUUCUCCUUUCUUCCAGCACACACAGCUAAGAGAUAAGAAGGCUGCAAGG,0.336
ACUUGGGUAUUUCUCAGUUAACACACAUGCAAGGAGGAAGAGAGUUUUUUUGAACAAAAUGACUGGCUUUGACAAAACUAUCUUGCUCUUUUUAAAUGUCACUUGAUACU,0.508
UUGCUCUGUGUCUGACCCAAUAUUGUUGAAAAAUGAAAUAAAGCAUUAUGCAAAAGGUGUUACAUCUAAUGUGGCUACAGUCUGAGUUUCUUUUCUCUCUAGUUACUGCC,0.509
AAAGUAGCCAAGAGCCUUUUGUUUUGUUUUUAUUUUGAUAAAUUAGUGGAGAAAUGGCAUUUUAAGAGGAGUCUCUUCUCAACUUACCUGAGAGUCGAAUUCUUCUCUUC,0.442
CAUUAAAGAAAAUGGUUUUCUACCAUUUCGACUGGAUCAUAUCAGAAAGAUGGCAUAUCAGAUAUGCAAGUCUGUGAAUGUUUUGCACAGUAAUAAGUUGACUCACACAG,0.338
GGUGAAUGUGAGGCUUCUACUUUUAUCCAAAAGGAGCUAUAUUAGCUAGGCUGUUUCUGAUAUCCAAUCAUUGGUUUAACAAUAAAGGCAAUUUGUUUAAUCAGUUAACG,1.13
AGAAGUGUUAACUGUUGUUGGCAGUGUAAUAUAAAACUACCAUCUACAGCCACCAAAGGAAAGCAUCUGCAUUAAAAGGAAGAAAGGAAGGAAGGAAGAAAAGAAGGAAG,1.22
ACUGGCGUUUAUCAGGUACCUUAGAUUGGUCACUUAUACAGCUAAUUUUAUUCGUAGAAAUCAGUAGAAAAAAAAAGUCUUGGGAACCUUCCAUCUGAUUUGCCUGGCCA,0.472

# Block 3
# Target: Sal-like protein 4, full length isoform B (SALL4, Homo sapiens, UniProt Q9UJQ4-2, residues 1-616)
# Technique: universal PBM
# Form: double-stranded DNA, one strand shown
# Medium: in vitro
# Tested at: not given
# Notes: 8-mer, flanks averaged, mean of replicates
# Direction: higher = stronger binding
Oligonucleotide,E-score
GAGTACCA,0.0172
TATGCAGA,0.245
ACATTCAG,0.083
ATTCATTC,0.261
ATCACATG,0.13
GTGGGTAA,-0.104
GAACTGCA,-0.0425
CGGTGCAG,-0.24
AAGTTATA,0.365
AGGGGTCA,-0.041
AAGAGGTG,-0.0678
AAGTCGAT,0.095
ATCTTTAC,0.211
CGATCGAC,-0.0262
CGCTGTAA,0.0362
GGACACCC,-0.291
CCTACGAG,-0.183
AAAGCGGC,-0.231
CCCATTAG,-0.248
ATAGAACG,0.228
AGTCGACG,-0.107
GCAGTTCA,-0.0617
ATACGAGC,0.0734
ACGTTGCT,0.0448
CTTTCACA,0.131

# Block 4
# Target: Phosphate system positive regulatory protein PHO4, full length, GST-tagged (PHO4, Saccharomyces cerevisiae, UniProt P07270, residues 1-312)
# Technique: competition protein-binding microarray
# Form: double-stranded DNA, one strand shown
# Medium: in vitro
# Tested at: 2 µM
# Notes: whole 60-bp probe, lowest competitor level
# Together with: Cbf1 competitor, 0.05 µM
# Direction: higher = stronger binding
# Shared flanks, not repeated: … GTCTTGATTCGCTTGACGCTGCTG
# Construct (chain): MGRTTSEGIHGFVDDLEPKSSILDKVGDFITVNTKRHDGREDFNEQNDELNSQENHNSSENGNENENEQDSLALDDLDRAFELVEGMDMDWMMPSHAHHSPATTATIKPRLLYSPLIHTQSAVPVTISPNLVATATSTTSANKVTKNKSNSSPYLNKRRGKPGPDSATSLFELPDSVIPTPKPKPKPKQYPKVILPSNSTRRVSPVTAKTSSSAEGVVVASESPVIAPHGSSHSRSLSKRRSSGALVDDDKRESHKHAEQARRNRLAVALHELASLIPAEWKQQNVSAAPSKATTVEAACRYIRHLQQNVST
Oligonucleotide,fluorescence intensity
ATGTACAGTGGTACCCTCGTGTTTTCTGCAGCGAGA,11400 a.u.
CGTCCTAGTGATTGTTCCGTGGGTGCCATGAGGAAG,7200 a.u.
AACGAATTGAAACGTATCGTGACGGACAATGAAGAA,5280 a.u.
GGACACTTTTCCCGTCACGTGGAACCGGCTTACAAG,14000 a.u.
AAGAGAAGGACCCGACACGGGTCCCTCTCGATATTA,6270 a.u.
TCAGAGAACAGGAAGCATGTGCTCAGTGCACAGGCG,12200 a.u.
GCATTAACGACAAAGCACGTGACGAATTCCCTTCAA,17100 a.u.
CATACCCAACCTTGCGTAGTGGGTGAAGATATTTGT,4590 a.u.
TTGCTGGATTCTTATCAGGTGTGGCAGTATGTCCCC,4390 a.u.
TTCTGGAACAATTATCATGTTTCTCATCTGGGTTCT,3950 a.u.
TTCCAGGAATAAAAGACCGTGCCAGTAATTTCAAGT,8070 a.u.
GTATTTTAACCACTGCTCGTGAAGACCACTCCAGTG,6010 a.u.
CGGGGTTAAGTTTGTCACGGAACTTGCTTGCAGCAG,4240 a.u.
CGTCCTAGTGATTGTCGAGTGGGTGCCATGAGGAAG,6010 a.u.
AAATTACTAAGTTGAGGTGTGGGTGACGCCGTATGA,5800 a.u.
CATACCCAACCTTGTCACTAGACTTAAGATATTTGT,3430 a.u.
GTCTTGTCTCATTGGTCCGTGGGTGTCCCCACTTCA,7000 a.u.
GGGAACTAGGCAAAGCACGGGTTTGGCGAGGCCGCT,8650 a.u.
CTTCTGTAAATTTGTCACTAGACTTGACGCGCCCCG,3260 a.u.
ATTTGAAGCTCCAATCACGTGATGGAAAGCTGTAAG,13700 a.u.
AAAGCGGTAATTTGGCTGGTGGGTGCAGATATCTAT,4150 a.u.
CGGACGCCCACTCCTCACGGGAATAAGTTAGAATGT,6360 a.u.
ACCCGGCATAGAAAGATCGTGATTGTAACGCCCTTG,5190 a.u.
GCGGGCATCGCGTTCGTCGTGACGAATGACTTGAAA,3660 a.u.
CGTCCTAGTGATTGTCACGAGACTTCCATGAGGAAG,6560 a.u.

# A few entries again (block 2):
Oligonucleotide,RBNS enrichment (R)
CAUUAAAGAAAAUGGUUUUCUACCAUUUCGACUGGAUCAUAUCAGAAAGAUGGCAUAUCAGAUAUGCAAGUCUGUGAAUGUUUUGCACAGUAAUAAGUUGACUCACACAG,0.338
ACUUGGGUAUUUCUCAGUUAACACACAUGCAAGGAGGAAGAGAGUUUUUUUGAACAAAAUGACUGGCUUUGACAAAACUAUCUUGCUCUUUUUAAAUGUCACUUGAUACU,0.508
CUCCAGCUCCUGGGAUCCAGGAGUCCAUCCCCAGUCCCCUGGGAUCCUAGUGUCCCUCCCUCCUGCAUCUCCUGGUCUCCUUCUCCAGGACCUUCCCAGCUUCCCCUCAG,0.833
UGAAUCUUGAAGGAAGAAGAUGAAUCAGAUGAUGACAAUAUGUAAUAUUUUCUUCCCCAUCCGCUGGUUUACAUUUCUGUAACAGUUGCAUAUGGCUAGCACCAUGGACU,0.653
CUUUAUGAAAUAUCCUUACUUUAUCUGGGCUUAAUAAGUCACUGACAUCAGCACUGCCAACUCGGCUGCAAUUGUGGACCUUCCCUACCAAAGGGAGUGUUGAAACUCAA,0.295
